Assay results of several laboratories.
A part holds a random share of what one study measured.

Series 1
Target: Sal-like protein 4, full length isoform B (SALL4, Homo sapiens, UniProt Q9UJQ4-2, residues 1-616)
Method: universal PBM
Form: double-stranded DNA, one strand shown
Sample: in vitro
Concentration: not given
Notes: 8-mer, flanks averaged, mean of replicates
Direction: higher = stronger binding
Measurement: E-score
Target sequence (chain): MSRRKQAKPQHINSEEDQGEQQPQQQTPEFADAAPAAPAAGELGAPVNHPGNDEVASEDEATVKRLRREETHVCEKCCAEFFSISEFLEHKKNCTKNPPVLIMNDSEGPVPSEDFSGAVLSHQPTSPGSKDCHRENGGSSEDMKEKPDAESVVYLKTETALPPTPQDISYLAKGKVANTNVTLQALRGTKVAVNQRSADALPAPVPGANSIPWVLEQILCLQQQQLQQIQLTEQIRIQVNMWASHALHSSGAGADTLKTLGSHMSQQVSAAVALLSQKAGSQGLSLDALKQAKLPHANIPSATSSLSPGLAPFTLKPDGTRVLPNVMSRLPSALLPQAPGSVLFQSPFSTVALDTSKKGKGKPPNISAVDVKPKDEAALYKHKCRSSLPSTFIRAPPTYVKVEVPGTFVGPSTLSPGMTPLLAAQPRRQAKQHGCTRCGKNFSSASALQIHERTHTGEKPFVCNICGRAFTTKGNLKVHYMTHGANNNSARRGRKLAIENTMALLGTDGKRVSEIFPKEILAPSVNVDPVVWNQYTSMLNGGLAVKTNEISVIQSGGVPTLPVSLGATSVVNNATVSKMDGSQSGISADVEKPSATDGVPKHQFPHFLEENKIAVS
AGGTCTTA: -0.0291
GTAACCTA: 0.258
ACCGATTA: 0.0821
AACCCTCG: -0.141
GTCAATCA: 0.162
ATGAATCC: 0.187
CTTGAGCC: -0.151
AGCTAGAC: -0.218

Series 2
Target: Interferon regulatory factor 5, full length, phosphomimetic (IRF5, Homo sapiens, UniProt Q13568-2, residues 1-514, K96S/S451D/S453D/S456D/S462D)
Method: protein-binding microarray
Form: double-stranded DNA, one strand shown
Sample: in vitro
Concentration: 250 nM
Notes: 60-bp whole probe
With: salmon DNA 0.4 mg/ml
Reference: random background probes
Direction: higher = stronger binding
Measurement: log fluorescence
Shared flanks, not repeated: GCCTAGCAC … GTCTTGATTCGCTTGACGCTGCTG
TTAGAACTGGGTATCGATTAGTGCTAG: 3.99 z-score
GACGATTTGAGTTCCGAGACGTGCTAG: -0.172 z-score
GACGATCTCAGTCTCGTGACGTGCTAG: -0.223 z-score
GACGTTTTCAGTTCCGAGACGTGCTAG: 2.42 z-score
TTAGGACTGCTACTGCTTTCGTGCTAG: 0.799 z-score
GACGGTCTCCTACTGCAGACGTGCTAG: -0.285 z-score
GACGATTTCGGGACTGGATACGTGCTA: 1.71 z-score
TTAGCTTTCGACACTGGGTTAGTGCTA: 7.38 z-score

Series 3
Target: Replicase polyprotein 1ab, main protease (rep, Severe acute respiratory syndrome coronavirus 2, UniProt P0DTD1)
Observed: enzyme activity
Action: inhibitor
Concentration: 20 µM
Notes: primary screen
Measurement: inhibition
CC[n+]1c(-c2ccccc2)c2cc(N)ccc2c2ccc(N)cc21: 42.1%
CC(=O)N=c1sc(S(N)(=O)=O)nn1C: 44.8%
COc1ccc2[nH]c(S)nc2c1: 97.9%
CC(=O)OC/C=C(C)/C=C/C=C(C)/C=C/C1=C(C)CCCC1(C)C: 22.9%

Series 4
Target: Replicase polyprotein 1ab, polymerase (rep, Severe acute respiratory syndrome coronavirus 2, UniProt P0DTD1)
Observed: enzyme activity
Action: inhibitor
Concentration: 20 µM
Measurement: inhibition
NS(=O)(=O)c1cc2c(cc1Cl)NC(CC1CCCC1)NS2(=O)=O (stereo not drawn): -2.64%
COc1ccc(CCNCC(O)COc2cccc(C)c2)cc1OC (stereo not drawn): 1.76%
CN(C)c1nc(N(C)C)nc(N(C)C)n1: -1.51%
Cc1cn(-c2cc(NC(=O)c3ccc(C)c(Nc4nccc(-c5cccnc5)n4)c3)cc(C(F)(F)F)c2)cn1: -6.71%
C[C@H]1COc2c(C3(N)CC3)c(F)cc3c(=O)c(C(=O)O)cn1c23: -7.03%
CC(C)OC(=O)C(C)(C)Oc1ccc(C(=O)c2ccc(Cl)cc2)cc1: 2.26%
CN(C(=O)c1c(O)c2ccccc2n(C)c1=O)c1ccccc1: 1.64%
CN1CCC(NC(=O)c2cc(-c3c(O)cc(O)cc3Oc3ccc([N+](=O)[O-])cc3)on2)CC1: -1.93%
O=C(NCc1ccc2c(c1)OCO2)c1c(Cl)cccc1Cl: 2.12%
N#Cc1c[nH]c2c(C(=O)N3CCN(CCc4ccc(F)cc4)CC3)cccc12: 3.56%
CCC(NC(C)C)C(O)c1ccc(O)c(O)c1 (stereo not drawn): -6.57%
COc1cccc2c1C(=O)c1c(O)c3c(c(O)c1C2=O)C[C@@](O)(C(=O)CO)C[C@@H]3O[C@H]1C[C@H](N)[C@H](O)[C@H](C)O1: 128%
CN1C[C@@H]2CN(c3ccc(-c4ccccc4)nn3)C[C@@H]2C1: -2.63%
C[N+](C)(C)CCCCCC[N+](C)(C)C: -4.76%
COc1cc2nc(C3CC3)nc(N3CCN(c4ccccc4OC)CC3)c2cc1OC: 3.17%
COc1cccc(CN(C(=O)CC(C)(C)C)[C@H]2C[C@@H](C(=O)N3CCNCC3)N(Cc3ccc4c(c3)OCO4)C2)c1: -1.41%
C[C@@H]1CN(c2c(F)c(N)c3c(=O)c(C(=O)O)cn(C4CC4)c3c2F)C[C@H](C)N1: -1.07%
CC(C)NC(=N)NC(=N)Nc1ccc(Cl)cc1: 0.95%
C[C@@H]1CN([C@H]2CC[C@](C#N)(c3ccc(F)cc3)CC2)CC[C@]1(C(=O)O)c1ccccc1: -4.61%
CC(C)n1c(=O)n(C(=O)NC2C[C@H]3CC[C@@H](C2)N3C)c2ccccc21 (stereo partly drawn): -5.02%
CC(C)(O/N=C(\C(=O)N[C@@H]1C(=O)N2C(C(=O)[O-])=C(C[n+]3ccccc3)CS[C@H]12)c1csc(N)n1)C(=O)O: -4.81%
C[C@H](Nc1ncnc2[nH]cnc12)c1nc2ccc(F)cc2c(=O)n1-c1ccccc1: -5.48%
COc1ccc2[nH]c(C(=O)c3ccccc3)cc2c1: 3.99%
Cc1ccc(Nc2ncc3c(n2)N(C)C(=O)N(c2cc(NC(=O)c4cccc(C(F)(F)F)c4)ccc2C)C3)cn1: 2.86%
CN(Cc1ccccc1)C(=O)[C@H](Cc1ccc2ccccc2c1)NC(=O)[C@@H]1C[C@@H](O)CN1C(=O)c1cn(C)c2ccccc12: -3.81%

Series 5
Target: RNA binding protein fox-1 homolog 2, RRM domain, GST-SBP tag (RBFOX2, Homo sapiens, UniProt O43251-10, residues 100-194)
Method: RNA Bind-n-Seq
Form: RNA
Sample: in vitro
Concentration: 365 nM
Notes: natural RNA segment, single round, ends assumed
Reference: no-protein control
Direction: higher = stronger binding
Measurement: RBNS enrichment (R)
Shared flanks, not repeated: GGGAGUUCUACAGUCCGACGAUC … UGGAAUUCUCGGGUGCCAA
GGGCUUUGAGUUUCCAGAAAGAGAUGGAAUAAUGGAGACUUUCUUUCCCUGGGGACCAGUGUCAGUGGCAGAGCCAGGGACACCCAUGCACAAGGAGGCAUGCUUGCCCU: 1.03
AGCAUCAAAGCUUUCUCCUGACAUCUCUUUCCAAGAGUCGGGGUGGCAUCUGUACCCCACCUCACCCCCGAGAAGUGCUAUUGCUUGCCCUCUGCCUCAGCCCCACUAGG: 1.03
CUGUACAAACUUUGGGCCCGAUUCAUAAGAAAGAAGUUUGCUAUUAACACGGGAUUUUAAAAAAUAUGCUCUCUCUCUCUCUGCUCUCUCUCUCUCUCUAAAUUUGGAUA: 0.855
CCCUUUGUCUUGUAGUUGCAUCACGUAGAGCAGCAGGGCUUCUAUAGAUAGGCCCAGUGUCUUGGCAUUCUUGUAGAAUCUUCAGGUGGGAAUGUGUGAUGCCUUUUCAG: 2.73
GAAAACACAUAUUUUAUGGAUGAGGCGUUUUGGUCUCCCCUGCAGUCGAUUUCUAGAAUCAAGUUUUAGAGUUCGGCUGAUGCAUCUGCCUGGGGACCUCAGAUGGGAGG: 0.709
GUACUCUUUCAAGUACGCAAGCUUUGACUUCACUACUUGCUGUAGCCUGUCCCCACUGUCUAUCCAGUGCUUACUUCAACCCUAGAGGCUGCCUUGACCCGAGGAGGCAU: 0.449
AGAAAUUCUAAUUGUUAGAAAUCCUUCCUUAUAAUGAAUGAAUUCUGCUUUCCUAUAAUUUCUACCUAUUGGGCCUUGUUCUGUUCUCUGGAACUAAACAGAACAACCAU: 0.43
ACUCAAGAAGCUGAGAUGGGAGGAUCCUGAGCUCAGGAGGUCAAGGCUGCAGUGAGCCGAGAUUGUGCCACUGCACUGCAGCUGGGGUGACAGUGCAAGACCCUGUCUCA: 0.693

Series 6
Cell line: HEK-293T/ACE2
Concentration: concentration not given
Time: 16 (unit not given)
Reference: vehicle
Measurement: viability
Nc1nc(Cl)nc2c1ncn2[C@@H]1O[C@H](CO)[C@@H](O)[C@@H]1F: 84.6%
CCOC(=O)[C@H](CCc1ccccc1)N[C@H]1CCc2ccccc2N(CC(=O)O)C1=O: 105%
Cc1ccc(-c2cc(C(F)(F)F)nn2-c2ccc(S(N)(=O)=O)cc2)cc1: 101%
COc1ccc(Cl)cc1C(=O)NCCc1ccc(S(=O)(=O)NC(=O)NC2CCCCC2)cc1: 99.1%

A few entries again (series 1):
CTTGAGCC: -0.151
ACCGATTA: 0.0821
AACCCTCG: -0.141
AGGTCTTA: -0.0291
GTCAATCA: 0.162
GTAACCTA: 0.258
